Measurements pooled from the literature.
Parts stem from different laboratories: compare values within a part only. Positions count from the first letter of the parent shown.

Block 1
Target: ABI1, truncated, D143A, DHFR fusion (Arabidopsis thaliana)
Method: DHFR PCA, deep sequencing
Sample: yeast
Setting: methotrexate growth selection, single substitutions
Added: (+)-ABA 200 µM
Relative to: wild-type fitted maximum
Reading: higher = stronger binding
Parent: PYL1, truncated, DHFR fusion (Arabidopsis thaliana); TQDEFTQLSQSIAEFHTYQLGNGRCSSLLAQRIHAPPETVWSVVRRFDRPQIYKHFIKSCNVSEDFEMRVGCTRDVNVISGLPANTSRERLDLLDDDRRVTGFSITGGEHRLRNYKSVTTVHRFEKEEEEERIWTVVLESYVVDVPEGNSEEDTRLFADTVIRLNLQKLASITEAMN; partner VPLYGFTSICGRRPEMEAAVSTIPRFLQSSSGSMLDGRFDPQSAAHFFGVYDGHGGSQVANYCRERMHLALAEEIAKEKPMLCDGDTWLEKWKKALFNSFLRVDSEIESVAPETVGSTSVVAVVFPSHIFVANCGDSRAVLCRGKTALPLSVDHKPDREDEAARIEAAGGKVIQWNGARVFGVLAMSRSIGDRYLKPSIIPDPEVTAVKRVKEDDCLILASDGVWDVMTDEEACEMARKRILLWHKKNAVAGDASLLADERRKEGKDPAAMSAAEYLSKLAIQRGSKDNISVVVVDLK
Under “relative binding score”, `I133Y` is recorded as 103%.
`G81V` — result for “relative binding score”: 36%.
For `G81E`, “relative binding score” read 32.7%.
Under “relative binding score”, `D92W` is recorded as 67.1%.
`S104A` — result for “relative binding score”: 68.5%.
`D92T`: “relative binding score” 83.4%.
`E89I`: “relative binding score” -12.3%.
Under “relative binding score”, `R88E` is recorded as 102%.

Block 2
Target: CREB3L3, bZIP domain (human)
Method: DHFR protein complementation
Sample: yeast
Setting: single substitutions, most at no-binding floor
Relative to: wild-type JUN-FOS pair
Reading: higher = stronger binding
Parent: JUN, bZIP domain (human); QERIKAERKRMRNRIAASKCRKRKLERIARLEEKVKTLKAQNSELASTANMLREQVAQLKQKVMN; partner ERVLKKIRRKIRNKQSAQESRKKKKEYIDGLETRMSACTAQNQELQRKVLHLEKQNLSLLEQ
The binding fitness of `R53N` is reported as -1.53 natural log.
`L31V` has a binding fitness of -1.5 natural log.
With `S47E` the binding fitness was -1.32 natural log.
The binding fitness of `Q58P` is reported as -1.15 natural log.
`A49F` gave a binding fitness of -1.53 natural log.
With `V56H` the binding fitness was -1.47 natural log.
`L31F` has a binding fitness of -1.54 natural log.
The binding fitness of `V35N` is reported as -1.51 natural log.

Further values, each from its own experiment
P1: viral docking peptide; KGVKRKLFAEDSS; partner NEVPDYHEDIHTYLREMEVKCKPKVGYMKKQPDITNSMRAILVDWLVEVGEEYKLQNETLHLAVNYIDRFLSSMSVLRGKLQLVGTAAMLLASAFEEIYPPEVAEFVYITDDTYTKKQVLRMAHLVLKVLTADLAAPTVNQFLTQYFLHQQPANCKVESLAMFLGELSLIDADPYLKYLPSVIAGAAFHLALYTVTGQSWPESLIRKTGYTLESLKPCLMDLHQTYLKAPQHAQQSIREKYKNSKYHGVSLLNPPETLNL
Under cross-linked residues, `PFKM (Homo sapiens, UniProt P08237)` is recorded as “K692 to S224” (FLOT2 (Homo sapiens, UniProt Q14254); cross-linking MS; cell fractions; added: DSSO).
For `P1 D11W`, “normalised enrichment score” read 5.67 (CCNA2, cyclin fold, Cln2 fusion (human); yeast growth competition, sequencing; yeast; strong parent motif; relative to: not given, higher = stronger binding).
`LMNB1 (Homo sapiens, UniProt P20700)` — result for interaction screen: “cross-linked” (TMPO (Homo sapiens, UniProt P42167); cross-linking MS; hits only).
`LSP1 (Homo sapiens, UniProt P33241)` — result for cross-linked residues: “K316 to D45” (DNAAF1 (Homo sapiens, UniProt Q8NEP3); cross-linking MS; cell fractions; added: DMTMM).

Excerpt of the above (block 2):
The binding fitness of `Q58P` is reported as -1.15 natural log.
The binding fitness of `R53N` is reported as -1.53 natural log.
The binding fitness of `V35N` is reported as -1.51 natural log.
